Experimental data from different studies.
Every numbered part comes from another study and shows a few of its results, in no order. Several values in a cell are separate wells, animals, samples, runs or records. Positions count from the first letter of the parent shown.
Chain of UniProt P19784 (whole entry, looked up): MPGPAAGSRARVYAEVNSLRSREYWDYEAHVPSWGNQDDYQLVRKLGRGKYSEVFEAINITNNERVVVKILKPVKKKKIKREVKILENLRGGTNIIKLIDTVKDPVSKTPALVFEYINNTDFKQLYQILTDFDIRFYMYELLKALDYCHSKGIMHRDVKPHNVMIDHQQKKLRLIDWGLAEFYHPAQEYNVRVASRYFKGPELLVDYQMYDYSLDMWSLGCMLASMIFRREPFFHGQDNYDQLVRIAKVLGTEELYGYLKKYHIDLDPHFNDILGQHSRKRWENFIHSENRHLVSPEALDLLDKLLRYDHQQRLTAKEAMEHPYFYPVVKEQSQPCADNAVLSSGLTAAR

Study 1
Target: CCNE1, cyclin fold, Cln2 fusion (human)
Technique: yeast growth competition, sequencing
Matrix: yeast
Setting: strong parent motif
Relative to: not given
Reading: higher = stronger binding
Starting sequence: viral docking peptide; TSVRRALFTGGSD; partner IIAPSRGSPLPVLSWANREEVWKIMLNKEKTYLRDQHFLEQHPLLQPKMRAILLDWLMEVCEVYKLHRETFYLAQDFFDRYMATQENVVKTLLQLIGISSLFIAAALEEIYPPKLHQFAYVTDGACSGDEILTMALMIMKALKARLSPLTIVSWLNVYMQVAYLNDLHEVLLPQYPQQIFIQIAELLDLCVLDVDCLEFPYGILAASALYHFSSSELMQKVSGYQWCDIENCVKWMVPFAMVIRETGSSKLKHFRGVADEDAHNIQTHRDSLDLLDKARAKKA
| Substitution | normalised enrichment score |
| --- | --- |
| R4S | 2.78 |
| A6K | 7.03 |
| S12A | 5.21 |
| V3P | 1.42 |
| R5K F8L | 0.257 |
| F8E | -0.261 |
| F8Y | 0.579 |
| G11N | 5.81 |

Study 2
Target: inorganic phosphate, free oxyanion
Technique: microfluidic competitive inhibition
Matrix: in vitro, cell-free expressed
Tested at: not given
Setting: derived from inhibition constants, unchanged parent 615000 nM
Reading: lower = stronger binding
Starting sequence: PafA, mature enzyme, eGFP fusion (Elizabethkingia meningoseptica, UniProt Q9KJX5); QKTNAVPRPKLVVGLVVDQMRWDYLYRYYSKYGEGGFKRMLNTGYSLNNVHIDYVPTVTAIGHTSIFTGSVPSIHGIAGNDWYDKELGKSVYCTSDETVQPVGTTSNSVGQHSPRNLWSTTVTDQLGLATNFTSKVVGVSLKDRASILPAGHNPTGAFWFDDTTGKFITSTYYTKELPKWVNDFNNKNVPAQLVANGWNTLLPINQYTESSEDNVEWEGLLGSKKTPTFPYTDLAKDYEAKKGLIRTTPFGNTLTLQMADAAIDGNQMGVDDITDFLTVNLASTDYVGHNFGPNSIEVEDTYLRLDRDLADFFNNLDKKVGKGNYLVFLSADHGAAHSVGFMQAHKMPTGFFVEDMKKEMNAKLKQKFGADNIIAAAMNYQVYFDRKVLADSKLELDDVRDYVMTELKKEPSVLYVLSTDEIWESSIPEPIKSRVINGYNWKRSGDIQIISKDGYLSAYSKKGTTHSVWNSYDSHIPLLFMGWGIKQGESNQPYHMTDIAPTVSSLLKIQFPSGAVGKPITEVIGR
| Substitution | phosphate dissociation constant |
| --- | --- |
| T104V | 520 µM |
| S211G | 487 µM |
| V468A | 568 µM |
| I296V | 656 µM |
| T405V | 631 µM |
| T228V | 547 µM |
| L394V | 637 µM |
| K322G | 540 µM |

Further values, each from its own experiment
| Structure (SMILES) | tested on | assay | system | setting | how to read | endpoint | result |
| --- | --- | --- | --- | --- | --- | --- | --- |
| COC[C@H]1OC(=O)c2coc3c2[C@@]1(C)C1=C(C3=O)[C@@H]2CCC(=O)[C@@]2(C)C[C@H]1OC(C)=O | Casein kinase II subunit alpha' (CSNK2A2, Homo sapiens, UniProt P19784) | enzyme activity, inhibitor |  | 0.5 µM | relative to: control | remaining activity | 98.3% |
| O=C1CCC(N2Cc3c(ccc4c3OCC43CCN(Cc4ccccc4)CC3)C2=O)C(=O)N1 (stereo not drawn) |  |  | male ICR mice, plasma | intravenous, 1.0 mg/kg |  | volume of distribution (Vz) | 6.54 L/kg and 4.35 L/kg |

A few entries again (study 2):
| Substitution | phosphate dissociation constant |
| --- | --- |
| V468A | 568 µM |
